{"data": "Assay results gathered from unrelated publications", "CHRM1": "Muscarinic acetylcholine receptor M1 (CHRM1, Homo sapiens, UniProt P11229)", "note": "Each line is one published result; not all experiments were run side by side. ± gives the spread as reported.", "UniProt P11229, sequence (whole entry, looked up)": "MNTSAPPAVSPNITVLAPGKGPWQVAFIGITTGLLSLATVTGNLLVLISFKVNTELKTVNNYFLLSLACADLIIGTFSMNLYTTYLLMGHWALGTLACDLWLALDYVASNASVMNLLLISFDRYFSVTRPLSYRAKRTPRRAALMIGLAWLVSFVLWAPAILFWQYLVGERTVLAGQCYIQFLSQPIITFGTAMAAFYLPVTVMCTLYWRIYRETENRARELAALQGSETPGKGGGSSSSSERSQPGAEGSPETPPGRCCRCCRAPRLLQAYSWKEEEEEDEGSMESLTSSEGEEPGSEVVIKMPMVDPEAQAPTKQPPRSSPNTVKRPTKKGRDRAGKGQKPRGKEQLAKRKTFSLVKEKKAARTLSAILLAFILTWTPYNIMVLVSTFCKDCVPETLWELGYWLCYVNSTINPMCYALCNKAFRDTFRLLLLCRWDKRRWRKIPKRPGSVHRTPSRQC"}
{"SMILES": "O=c1cc(-c2ccccc2OCc2ccc(-c3ncco3)cc2)ncn1C1CCCCC1O (centres unmarked)", "target or system": "CHRM1", "assay": "positive allosteric modulator, IP1 accumulation", "test system": "CHO-M1 cells", "setting": "10 µM, 60 min, 37 °C, with: ACh", "scale": "relative to: ACh alone, higher = stronger potentiation", "quantity": "ΔpEC50 of ACh", "value": "1.61 ± 0.23 log units"}
{"SMILES": "Cc1nc2cccc(OCC(C)(C)C(=O)NC(C)C)c2c(N)c1C(=O)O", "test system": "female Sprague-Dawley rat, plasma", "setting": "oral gavage, 30 mg/kg, day 7", "quantity": "Cmax", "value": "77.1 ± 41.7 ng/mL"}
{"SMILES": "CNCc1ccc(-c2[nH]c3cc(F)cc4c3c2CCNC4=O)cc1", "test system": "human, fed high-fat meal, plasma", "setting": "oral, 300 mg, cycle 1 day 1, single dose, median", "quantity": "Cmax", "value": "393 ng/mL"}
{"SMILES": "CCCOc1ccc([C@H]2CNC(=O)N2c2ccc3[nH]cnc3c2)cc1", "test system": "human, plasma", "setting": "oral, 1200 mg, single dose, fed", "quantity": "Cmax", "value": "4710 ng/mL"}
{"SMILES": "COc1cccc(-c2n[nH]c(SCc3ccccn3)n2)c1OC", "test system": "Sprague-Dawley rat, both sexes, plasma", "setting": "oral, diet, 100 mg/kg/day, day 7", "quantity": "Cmax", "value": "6230 ng/mL"}
{"SMILES": "NC(=O)c1ccc(COc2ccccc2-c2cc(=O)n(C3CCCCC3O)cn2)cc1 (centres unmarked)", "target or system": "CHRM1", "assay": "allosteric agonist, IP1 accumulation", "test system": "CHO-M1 cells", "setting": "10 µM, unit not given", "scale": "relative to: maximum ACh response", "quantity": "change in baseline activity", "value": "80.5 ± 4.1"}
{"SMILES": "CS(=O)(=O)Nc1ccc(C(=O)O[C@@H](Cc2c(Cl)c[n+]([O-])cc2Cl)c2ccc(OC(F)F)c(OCC3CC3)c2)cc1OCC1CC1", "test system": "human, plasma", "setting": "inhaled, 1200 µg twice daily, day 14, multi-dose dry powder inhaler", "quantity": "Cmax", "value": "3.65 ng/mL"}
{"SMILES": "Cn1c(C(F)(F)F)cc(=O)n(-c2cc(Oc3cccnc3OCC(=O)O)c(Cl)cc2F)c1=O", "test system": "beagle dog, female, plasma", "setting": "oral capsule, 1000 mg/kg/day epyrifenacil, week 13, 90-day study", "quantity": "Cmax", "value": "7050 ng/mL"}
{"SMILES": "CCCC[C@H](NC(C)=O)C(=O)N[C@H]1CCC(=O)NC[C@@H](C(=O)N[C@@H](Cc2c[nH]c3ccccc23)C(N)=O)NC(=O)[C@H](CCCNC(=N)N)NC(=O)[C@@H](Cc2ccccc2)NC(=O)[C@H](Cc2c[nH]cn2)NC1=O", "test system": "beagle dog, female, plasma", "setting": "subcutaneous, 40.0 mg/kg daily, day 28", "quantity": "Cmax", "value": "1260 ng/mL"}
{"SMILES": "O=C1N=C(N2CCOCC2)CN1c1ccc(Cl)cc1", "test system": "beagle dog, both sexes, plasma", "setting": "oral, 30 mg/kg, day 0, tablets, single dose", "quantity": "Cmax", "value": "17200 ng/mL"}
{"SMILES": "Cc1cc(Nc2cc3ncccc3c(N[C@@H]3C[C@H]4CC[C@@H](C3)N4CCC#N)n2)n[nH]1", "test system": "Sprague-Dawley rat, male, plasma", "setting": "oral, 1000 mg/kg/day, last day of 13 weeks", "quantity": "Cmax", "value": "71.9 ng/mL"}
{"note": "Excerpt of the above:"}
{"SMILES": "O=C1N=C(N2CCOCC2)CN1c1ccc(Cl)cc1", "test system": "beagle dog, both sexes, plasma", "setting": "oral, 30 mg/kg, day 0, tablets, single dose", "quantity": "Cmax", "value": "17200 ng/mL"}
